Measured values of several laboratories.
Each numbered part is a random draw from the data of one study; scales do not carry over between parts. Positions count from the first letter of the parent shown.

Series 1
Target: Fragile X messenger ribonucleoprotein 1, C-terminal low-complexity region (Fmr1, Mus musculus, UniProt P35922)
Technique: RNA Bind-n-Seq
Form: RNA
Matrix: in vitro
Tested at: 200 nM
Notes: whole 134-nt RNA, ends assumed
Added: 150 mM LiCl
Reference: input library
Direction: higher = stronger binding
All molecules: 7-deaza-guanosine replaces G
For `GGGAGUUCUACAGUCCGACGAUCUCCUCAAGUCCUGUGCUACACAUCGUAUGUACCGAAUCGGGGAGGAGGAGGGAAAGUAUUAUGUUACGCCGUUCGGAUCUGCACUUCCAGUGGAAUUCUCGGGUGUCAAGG`, the log2 enrichment was -0.711.
`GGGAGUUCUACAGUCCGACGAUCCACAGACAACACGCACCCACACAGACACAGAGGGAAGGGGUUGGGAUGGGGACAGGGUGCACAGCAGGGCGAAAUAGGACCCCAGCCCCUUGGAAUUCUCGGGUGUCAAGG` gave a log2 enrichment of 1.75.
The log2 enrichment of `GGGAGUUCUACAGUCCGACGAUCGUCCUGUGCUACACAUCGUAUGUACCGAAUCGGGAAAAAGGGAAAAAAAGGGUUUGGGAAAGUAUUAUGUUACGCCGUUCGGAUCUGCACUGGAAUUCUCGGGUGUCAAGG` is reported as -2.4.
The log2 enrichment of `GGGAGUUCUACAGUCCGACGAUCCCUCAAGUCCUGUGCUACACAUCGUAUGUACCGAAUCGGAAAGGAAAGGUGGAAAGUAUUAUGUUACGCCGUUCGGAUCUGCACUUCCAGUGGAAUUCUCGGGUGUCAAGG` is reported as -0.563.
`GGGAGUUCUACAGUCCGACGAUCUCCUGUGCUACACAUCGUAUGUACCGAAUCGGGUUUUUGGGUUUUUUUGGGAAAAAGGGAAAGUAUUAUGUUACGCCGUUCGGAUCUGCAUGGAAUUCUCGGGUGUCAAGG` has a log2 enrichment of -0.615.
The log2 enrichment of `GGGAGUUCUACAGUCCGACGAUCUCCUGUGCUACACAUCGUAUGUACCGAAUCGGGUUUUUUGGGGUUUUUUGGGUUUUUUGGAAAGUAUUAUGUUACGCCGUUCGGAUCUGCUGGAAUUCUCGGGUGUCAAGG` is reported as 0.226.
With `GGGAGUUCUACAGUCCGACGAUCAAGUCCUGUGCUACACAUCGUAUGUACCGAAUCGGGCCCCGGGCCCCGGGCCCCGGGAAAGUAUUAUGUUACGCCGUUCGGAUCUGCACUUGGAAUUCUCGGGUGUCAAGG` the log2 enrichment was -1.47.
With `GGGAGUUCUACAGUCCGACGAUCAAGUCCUGUGCUACACAUCGUAUGUACCGAAUCGGGUGGGUUUGGGAAAAAAAGGGAAAGUAUUAUGUUACGCCGUUCGGAUCUGCACUUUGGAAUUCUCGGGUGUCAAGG` the log2 enrichment was -1.31.

Series 2
Target: CCND3, cyclin fold, Cln2 fusion (human)
Technique: yeast growth competition, sequencing
Matrix: yeast
Notes: weak parent motif
Reference: not given
Direction: higher = stronger binding
Starting sequence: MASTL docking peptide (human); PMIAKNLMCELDE
For `PMIAKNLMCEVDE [L11V]`, “normalised enrichment score” read -0.0739.
`PMINKNLMCELDE [A4N]`: “normalised enrichment score” 0.59.
`PMIAKNLMCCLDE [E10C]` — result for “normalised enrichment score”: 0.0198.
For `PMIAKNLMCKLDE [E10K]`, “normalised enrichment score” read 0.0345.
`PMIAKNLFCELDE [M8F]` — result for “normalised enrichment score”: -0.303.
`PMQAKNLMCELDE [I3Q]`: “normalised enrichment score” 0.0057.

Series 3
Target: RNA binding protein fox-1 homolog 2, RRM domain, GST-SBP tag (RBFOX2, Homo sapiens, UniProt O43251-10, residues 100-194)
Technique: RNA Bind-n-Seq
Form: RNA
Matrix: in vitro
Tested at: 365 nM
Notes: natural RNA segment, single round, ends assumed
Reference: no-protein control
Direction: higher = stronger binding
Residues (chain): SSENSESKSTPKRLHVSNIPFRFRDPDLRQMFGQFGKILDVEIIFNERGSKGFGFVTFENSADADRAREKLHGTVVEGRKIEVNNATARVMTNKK
`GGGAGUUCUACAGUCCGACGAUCAGAUGAAAUCUGUUCUGGGAAUGUUUCAGCAGCCAAUAAGUGCCCGAGCACACUGCCCCCGGUUGCCUGCCUGGGCCCCAUGUGGAAGGCAGAUGCCUGCUCGCUCUGUCUGGAAUUCUCGGGUGCCAA` — result for “RBNS enrichment (R)”: 0.331.
Under “RBNS enrichment (R)”, `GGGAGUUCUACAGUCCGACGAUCUUUAUUUUGCUGCUUUGAUUUUGCUUCUGUCUGCCCCUCACAUGUGCAGUGGCAGGCGUGUUUGAGCGAGCCUCCUUCCUUAUUCAUAGGGAUUCAGUGUUGACUGUUCCUGGAAUUCUCGGGUGCCAA` is recorded as 0.384.
`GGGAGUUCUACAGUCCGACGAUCCUCUAACCCUGCUCCUUCCUAGCACAGCUCUGCACAUCCAUCUCUCUCUCUUGCUGAAUGCACAUAUGUGCACACAUGUCAGCAUGUGCAUGCUCACUCCCCCACUUCUCUGGAAUUCUCGGGUGCCAA`: “RBNS enrichment (R)” 2.55.
`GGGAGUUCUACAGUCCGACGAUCAUCUGCGCAGCUCUGGUACCCUCUGUGGGUGCCAUCUCUACCUCUGACACAGACUGCCUGCCUUGAAGCUGAGAAGGCACAGGGCAAGGAGCCAAGGACCACAGAGCCUCUGGAAUUCUCGGGUGCCAA` — result for “RBNS enrichment (R)”: 0.25.
For `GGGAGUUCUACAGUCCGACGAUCGACAAACCUCUGCUGCUUCCCUCUUGGAGGAUACAGUAAUACCAGAGUGUGGAGAUCAGUAACCAUAUCCUGAGGAAAGUGGUGAUUCCCCUGCUAGAUGAUUCACCCACUGGAAUUCUCGGGUGCCAA`, “RBNS enrichment (R)” read 0.57.
For `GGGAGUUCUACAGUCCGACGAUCGUCUUUGGUGCUGUUAACCCUUGGCUCCAUUUGACCAUCAAUCUGAGCAAUGAGCAAAGCAAUAUCAUAUCCAUGUUUAUGUCCCUCCUCCUUCCCUUGCUCCUCCUCUGUGGAAUUCUCGGGUGCCAA`, “RBNS enrichment (R)” read 0.518.

Mixed results
For `PhoQ, residues 284 288 289 292 302 303 ASVMEA`, the fold induction was 10.1 (PhoP, residues 12 14 15 18 19 LHSVW (Escherichia coli, UniProt P23836); Sort-seq, item: YFP reporter; E. coli; PhoQ-PhoP variant library, added: 10 µM Mg2+; reference: high Mg2+ state, higher = stronger signaling).

Some of these lines once more (series 2):
`PMQAKNLMCELDE [I3Q]`: “normalised enrichment score” 0.0057.
For `PMIAKNLMCKLDE [E10K]`, “normalised enrichment score” read 0.0345.
For `PMIAKNLMCEVDE [L11V]`, “normalised enrichment score” read -0.0739.
